Experimental data of several laboratories.
Each numbered part is a random draw from the data of one study; scales do not carry over between parts. Changes are numbered by the printed parent chain.

Series 1
Target: Histone acetyltransferase KAT6A, winged helix 2, GST fusion (KAT6A, Homo sapiens, UniProt Q92794, residues 85-181)
Method: protein binding microarray
Molecule type: double-stranded DNA, one strand shown
Medium: in vitro
Tested at: not given
Setting: 8-mer, flanks averaged, mean of 2 arrays, mostly near background
Reference: not given
Direction: higher = stronger binding
Quantity: E-score
Construct (chain): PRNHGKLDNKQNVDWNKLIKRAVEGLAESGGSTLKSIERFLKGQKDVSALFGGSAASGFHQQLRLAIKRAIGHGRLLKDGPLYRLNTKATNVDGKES
AGAGTTTG: 0.024
AGGCTCCG: 0.0788
ACGAGATA: -0.034
CGAGACTA: -0.116
CAACACCG: 0.0717
CCAGTAAC: -0.0141
AAAAACAA: 0.0542
ATAATTCC: -0.024
AAGAATCA: 0.0811
CCCTGGTA: -0.133
CGCGAGAA: -0.0268
TCGCTTCA: 0.104
CCTACGGA: -0.0108
GCAGGGAA: -0.0535
GCAGATCC: 0.114
ATGCGTGC: 0.131
ATGGCGCC: -0.00303

Series 2
Target: Ras GTPase-activating protein-binding protein 1, full length (G3BP1, Homo sapiens, UniProt Q13283)
UniProt Q13283, sequence (whole entry, looked up): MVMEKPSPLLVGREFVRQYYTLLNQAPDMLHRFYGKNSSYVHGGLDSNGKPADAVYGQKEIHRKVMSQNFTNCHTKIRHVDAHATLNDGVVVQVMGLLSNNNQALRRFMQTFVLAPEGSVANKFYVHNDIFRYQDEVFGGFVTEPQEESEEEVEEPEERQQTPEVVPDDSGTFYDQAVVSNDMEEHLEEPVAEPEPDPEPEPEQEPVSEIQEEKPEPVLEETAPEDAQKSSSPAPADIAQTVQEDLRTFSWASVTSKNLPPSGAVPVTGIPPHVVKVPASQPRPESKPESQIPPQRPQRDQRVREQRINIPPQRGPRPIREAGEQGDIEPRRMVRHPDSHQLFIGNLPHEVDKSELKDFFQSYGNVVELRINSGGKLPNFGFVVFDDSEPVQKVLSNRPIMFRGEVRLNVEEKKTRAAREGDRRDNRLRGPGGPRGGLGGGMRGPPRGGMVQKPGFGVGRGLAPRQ
Method: RNA Bind-n-Seq
Molecule type: RNA
Medium: in vitro
Tested at: 200 nM
Setting: whole 134-nt RNA, ends assumed
Together with: 150 mM KCl
Reference: input library
Direction: higher = stronger binding
Quantity: log2 enrichment
Shared flanks, not repeated: GGGAGUUCUACAGUCCGACGAUC … UGGAAUUCUCGGGUGUCAAGG
AGUCCUGUGCUACACAUCGUAUGUACCGAAUCGGGAAAAAGGGAAAGGGUUUUUGGGAAAGUAUUAUGUUACGCCGUUCGGAUCUGCACU: -0.366
GUCCUGUGCUACACAUCGUAUGUACCGAAUCGGGGAGGGGUUUGGGGUUUUUUUGGGGAAAGUAUUAUGUUACGCCGUUCGGAUCUGCAC: 0.266
UCCUCAAGUCCUGUGCUACACAUCGUAUGUACCGAAUCGGUGGGUGGGUGGAAAGUAUUAUGUUACGCCGUUCGGAUCUGCACUUCCAGC: 0.0218
AAGUCCUGUGCUACACAUCGUAUGUACCGAAUCGGGAAAAAAAGGGUUUGGGAGGGAAAGUAUUAUGUUACGCCGUUCGGAUCUGCACUU: 0.34
GUCCUGUGCUACACAUCGUAUGUACCGAAUCGGAAAAAGGGGAAAAAGGGAAAAAGGGAAAGUAUUAUGUUACGCCGUUCGGAUCUGCAC: -0.595
GUCCUGUGCUACACAUCGUAUGUACCGAAUCGGGGUUUGGGGAGGGGAAAAAAAGGGGAAAGUAUUAUGUUACGCCGUUCGGAUCUGCAC: 0.397
UAACUUUAGAGGAGGAUCUGAUGGAUAUGGCAGUGGACGUGGAUUUGGAGAUGGCUAUAAUGGGUAUGGAGGAGGACCUGGAGGUGGCAA: 0.403
AGUCCUGUGCUACACAUCGUAUGUACCGAAUCGGGGCCCCGGCCCCGGGCCCCGGGGAAAGUAUUAUGUUACGCCGUUCGGAUCUGCACU: -1.01
CUGUGCUACACAUCGUAUGUACCGAAUCGGGUUUUUUUGGGUUUUUUUGGGGUUUUUUUGGAAAGUAUUAUGUUACGCCGUUCGGAUCUG: -0.808
CGGGAGGUGGAUUUUGUUUAUUUUUUUAGCUCAUUUCCAGGGGUGGGAAUUUUUUUUUAAUAUGUGUCAUGAAUAAAGUUGUUUUUGAAA: 0.186
UCCCUGAGACGGCGGGCAACAGCAUCGGCAGGAACGCCAUGGCCGUCCCCUCCCAGCUCUUACCUUACCAUCGACCUCACAGACGACACA: 0.953
UGGGAGGUGGAUUUUGUUUAUUUUUUUAGCUCAUUUCCAGGGGUGGGAAUUUUUUUUUAAUAUGUGUCAUGAAUAAAGUUGUUUUUGCAA: 0.239
UUGUCUUCUGAGAUGUUGGGCCCCUCUUGGGAUGGAGAUGAAGCAGAAUCCACUGGUGAAAUCAUUAGACUUGGAGACACAGCACACACC: 0.352
UGUUCCUGUUGAUGAAAAUCUUUUCACUGGAGAGGAUUUGGAUGAACUAGAAGAAGAAUUAAAUACACUUGAUUUAGAAGAAUGACACCA: -0.155

Series 3
Target: ABI1, truncated, D143A, DHFR fusion (Arabidopsis thaliana)
Method: DHFR PCA, deep sequencing
Medium: yeast
Setting: methotrexate growth selection, single substitutions
Together with: (+)-ABA 0.0091 µM
Reference: wild-type fitted maximum
Direction: higher = stronger binding
Quantity: relative binding score
Parent: PYL1, truncated, DHFR fusion (Arabidopsis thaliana); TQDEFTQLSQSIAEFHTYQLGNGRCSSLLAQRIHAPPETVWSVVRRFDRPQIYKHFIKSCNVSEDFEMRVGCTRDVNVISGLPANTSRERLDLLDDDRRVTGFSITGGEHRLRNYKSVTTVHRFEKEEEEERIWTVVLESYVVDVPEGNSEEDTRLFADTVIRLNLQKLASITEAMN; partner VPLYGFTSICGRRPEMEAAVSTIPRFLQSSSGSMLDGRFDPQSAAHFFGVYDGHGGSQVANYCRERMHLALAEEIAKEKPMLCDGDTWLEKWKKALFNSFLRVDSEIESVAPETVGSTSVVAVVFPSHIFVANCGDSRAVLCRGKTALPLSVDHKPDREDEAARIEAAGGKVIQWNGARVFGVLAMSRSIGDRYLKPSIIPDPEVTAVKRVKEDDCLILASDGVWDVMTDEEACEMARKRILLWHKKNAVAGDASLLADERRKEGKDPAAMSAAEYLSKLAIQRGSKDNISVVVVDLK
L8C: 4.71%
E151F: 2.88%
P83F: 5.99%
L169T: -1.61%
R132A: 51.9%
G102Y: -9.81%
H34Y: 33.8%
N114K: 0.639%
N85R: 56.9%
P36I: 1.81%
G71P: -6.99%
T1N: 26.1%
D97A: 24.9%
G102N: -9.83%
D65R: 1.67%
G81L: 8.37%
T106V: 74%
E151W: 6.42%
R69T: 19.3%
G23A: 4.72%
R98C: -1.23%
S171P: 9.33%
Q31D: 0.534%
I57Q: -5.04%
E89R: -0.21%

Series 4
Target: Interferon regulatory factor 7, full length, phosphomimetic (IRF7, Homo sapiens, UniProt Q92985, residues 1-503, S101K/S471D/S472D/S475D/S476D/S477D/S483D/S484D/S487D)
Method: protein-binding microarray
Molecule type: double-stranded DNA, one strand shown
Medium: in vitro
Tested at: 250 nM
Setting: 60-bp whole probe
Together with: salmon DNA 0.4 mg/ml
Reference: random background probes
Direction: higher = stronger binding
Quantity: log fluorescence
Shared flanks, not repeated: GCCTAGCAC … GTCTTGATTCGCTTGACGCTGCTG
Residues (chain): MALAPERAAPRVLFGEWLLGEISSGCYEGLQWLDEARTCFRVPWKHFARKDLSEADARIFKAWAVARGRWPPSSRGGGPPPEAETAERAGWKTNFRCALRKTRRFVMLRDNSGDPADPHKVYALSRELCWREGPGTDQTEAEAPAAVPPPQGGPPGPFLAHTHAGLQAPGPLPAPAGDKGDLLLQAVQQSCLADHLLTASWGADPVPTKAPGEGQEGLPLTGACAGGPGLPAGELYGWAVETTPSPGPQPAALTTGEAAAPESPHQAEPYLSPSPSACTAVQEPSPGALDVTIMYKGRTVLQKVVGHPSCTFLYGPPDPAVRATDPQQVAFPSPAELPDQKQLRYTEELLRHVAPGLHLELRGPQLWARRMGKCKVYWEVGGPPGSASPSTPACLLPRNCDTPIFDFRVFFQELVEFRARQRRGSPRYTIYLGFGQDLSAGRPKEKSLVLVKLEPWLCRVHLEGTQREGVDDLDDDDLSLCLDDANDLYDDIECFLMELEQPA
TGAGAACTGAGTTTCGATTAGTGCTAG: 7.63 z-score
TCACTTTTATTTTTTTTACTGTGCTAG: 0.976 z-score
TTAGGACTGGACAGTGGGTTAGTGCTA: -0.664 z-score
GACGATATCGGGTATCGAGAGGTGCTA: -0.34 z-score
TTAGGTATCGGGTAACGGTTAGTGCTA: 0.416 z-score
GACGGTTTCCACTATCGGGACGTGCTA: 1.98 z-score
GATGATCTCAGACTGGAGACGTGCTAG: -0.627 z-score
TTAGAAATCGGGTTTCGATTAGTGCTA: 7.7 z-score
TTAGGTATCGGGTTTCGGATAGTGCTA: 4.68 z-score
GAACTTTGGCCTCTAGGTTTGTGCTAG: -0.273 z-score
TTAGGTCTCGGACTGGCTTAGTGCTAG: 0.229 z-score
GACTGACTGGACTTTCGGGACGTGCTA: -0.397 z-score
GACGAACTGGGGACTGGACACGTGCTA: -0.462 z-score
GACGGTATCGGGTTTCGGGACGTGCTA: 3.44 z-score
TCATGTCTGTGTTTCCTACTGTGCTAG: 0.912 z-score
TGTGGACCTTGGGAGATTTCGTGCTAG: -1.07 z-score

Series 5
Target: RING finger protein unkempt homolog, zinc fingers 1-6, GST-SBP tag (UNK, Homo sapiens, UniProt Q9C0B0, residues 30-357)
UniProt Q9C0B0, sequence (30-357, looked up): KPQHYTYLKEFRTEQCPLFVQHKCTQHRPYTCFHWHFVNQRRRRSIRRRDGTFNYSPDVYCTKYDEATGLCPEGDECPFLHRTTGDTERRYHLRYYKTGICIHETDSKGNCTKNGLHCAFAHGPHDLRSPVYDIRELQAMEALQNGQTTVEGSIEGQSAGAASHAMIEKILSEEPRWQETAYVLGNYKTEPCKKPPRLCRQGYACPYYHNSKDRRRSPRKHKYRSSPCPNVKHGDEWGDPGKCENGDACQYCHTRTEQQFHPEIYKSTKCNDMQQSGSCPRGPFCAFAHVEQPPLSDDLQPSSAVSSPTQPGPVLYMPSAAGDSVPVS
Method: RNA Bind-n-Seq
Molecule type: RNA
Medium: in vitro
Tested at: not given
Setting: RNA with constant flanks, human and mouse sites, ends assumed
Reference: input RNA pool
Direction: higher = stronger binding
Quantity: bound/input enrichment
Shared flanks, not repeated: GGGAGUUCUACAGUCCGACGAUC … CAACAGAGGAUUGAGCAUCA
GCGGAGGAGAGUUCAGAUUGGUUUUAUGGUUUCCUCUCAUUUCUCUAUGAUAUAAUGACUCCUUUUGAAAUGCUAGAAGAAGAGGAAGAAGAAAGCGAAACUGCAGAUGGUGUUGAUGGU: 0.576 ratio
UCCUGGCUUUUCUCGUUUUCUCACUUGCUCUCUUGUUCUCUGUUUUUUUAAACCAAUUUUACUUUAUGAAUAUAUUCAUGACAUUUGUAAUAAAUGUCUUGAGAAAGAAUUUGUUUCAUG: 0.753 ratio
CGUCUUAACUAUGCCCAGUGGUAUCCAAUUGUUGUAUUUCUUAACCCUGAUUCUAAGCAAGGAGUAAAAACAAUGAGAAUGAGGUUAUGUCCAGAAUCUCGGAAAAGUGCCAGGAAGUUA: 0.252 ratio
GAUCACCAAUCACCAACACUAUUAAACAGCAAUCAAAAUUUACCAGACUGAAAAUUUUGUUUCUUUUUACAGAGAAGAAUGGUUUGUCAUUCAUUGAGACAUCUGCUCUAGAUUCUACAA: 0.108 ratio
GCAGCUAUUCCACAUGCCGCAGAAGAUAUUCAAGGAGAUGACAGGUGGAUGUCUCAGCAUAAUAGGUUUGUUCUGGACUGUAAAGACAAAGAACCAGAUGUGCUGUUUGUGGGGGACUCC: 0.189 ratio
AAUGCGUGGAUGGAGACGGAAGCCGUGAACUACCAUGAUGAAACAGGGGAGACCAUGGACAACCUCACCCUGGAGGCCGGAGAUGACGCAGGGAAGGUGAAGUGGGUGGACAUCAGCGAC: 0.18 ratio
UACAUCACCAAUGUUCUACAAAAUCCUGAUUUGGCUCUGAGAAUGGCUGUACGUAAUAACUUAGCCGGUGCUGAAGAACUCUUUGCCCGGAAAUUUAAUGCUCUUUUUGCCCAGGGAAAU: 0.326 ratio
UAAAAUCUUGGCCAUUGUGGGAACUGCUGAAAGUAACAGUGAACACCCUCUAGGAACAGCCAUAACCAAAUAUUGCAAACAGGAGCUGGACACUGAAACCUUGGGUACCUGCAUAGAUUU: 0.473 ratio
AAGCACUUUCAGCAGGCAAAAAUGAUCCUUGAAAAUAUCCCCAAUCCAGACCGUGAGGUCAGUAGAAUCCUGAAGGUUGCCAAGCCCAACUUUGUGGUUAUGAAGCUCUUAGCAGGAGGA: 0.406 ratio
UCUGGAUCCAAAUGUUCAGAAAUGGGAUGUAACAGUAUUAGAACUCAGCUAUCACAAACGUCAUUUGGAUAGACCAGUGUUCUUACGGUUUUGGGAAACAUUGGACAGGUACAUGGUAAA: 0.271 ratio
UGGAAACACUGGAGGUGUUGUUGGGGCCAUAGUACAAUCUCAUUUUCUAUUAAAAAUACAUGGCUAUGUAAAUAGGGCAUUUACAAUUUCUUAAAAGUCUUAUUUGCACCUUGUUUGGUU: 0.491 ratio

A few entries again (series 3):
N114K: 0.639%
N85R: 56.9%
P36I: 1.81%
G71P: -6.99%
T1N: 26.1%
D97A: 24.9%
G102N: -9.83%
D65R: 1.67%
G81L: 8.37%
T106V: 74%
E151W: 6.42%
R69T: 19.3%
G23A: 4.72%
R98C: -1.23%
